# Experimental data from different studies.
# Lines come from different studies, so protocols differ. Numbers after ± are the reported error.
SMILES,assay,system,conditions,measurement,result
CCCC[C@H](NC(=O)CNC(=O)CNC(=O)CN1CCN(CC(=O)O)CCN(CC(=O)O)CCN(CC(=O)O)CC1)C(=O)N[C@H]1CC(=O)NCCCC[C@@H](C(N)=O)NC(=O)[C@H](Cc2c[nH]c3ccccc23)NC(=O)[C@H](CCCNC(=N)N)NC(=O)[C@@H](Cc2ccccc2)NC(=O)[C@H](Cc2c[nH]cn2)NC1=O [lutetium-177 labelled],,"C57 mouse, female, heart","intravenous, 0.037 MBq, 2 h",tissue uptake,0.16 ± 0.07 %ID/g
CCCC[C@H](NC(=O)COCCOCCNC(=O)CN1CCN(CC(=O)O)CCN(CC(=O)O)CC1)C(=O)N[C@H]1CC(=O)NCCCC[C@@H](C(N)=O)NC(=O)[C@H](Cc2c[nH]c3ccccc23)NC(=O)[C@H](CCCNC(=N)N)NC(=O)[C@@H](Cc2ccccc2)NC(=O)[C@H](Cc2c[nH]cn2)NC1=O [copper-64 labelled],,"C57 mice, brain","intravenous, 0.37 MBq, 0.5 h",tissue uptake,0.24 ± 0.06 %ID/g
N=C(N)NCCC[C@@H]1NC(=O)[C@H](CCCCNC(=O)CC[C@H](NC(=O)CC[C@H](NC(=O)CN2CCN(CC(=O)O)CCN(CC(=O)O)CCN(CC(=O)O)CC2)C(=O)N[C@@H](CCC(=O)NCCCC[C@@H]2NC(=O)[C@@H](Cc3ccccc3)NC(=O)[C@H](CC(=O)O)NC(=O)CNC(=O)[C@H](CCCNC(=N)N)NC2=O)C(=O)NCCCC[C@@H]2NC(=O)[C@@H](Cc3ccccc3)NC(=O)[C@H](CC(=O)O)NC(=O)CNC(=O)[C@H](CCCNC(=N)N)NC2=O)C(=O)NCCCC[C@@H]2NC(=O)[C@@H](Cc3ccccc3)NC(=O)[C@H](CC(=O)O)NC(=O)CNC(=O)[C@H](CCCNC(=N)N)NC2=O)NC(=O)[C@@H](Cc2ccccc2)NC(=O)[C@H](CC(=O)O)NC(=O)CNC1=O [indium-111 labelled],,"female athymic nu/nu mice, spleen","intravenous, 111 kBq, 0.5 h",tissue uptake,2.65 ± 1.36 %ID/g
CN1C(=O)[C@@H](Cc2ccc(O)cc2)NC(=O)CNC(=O)[C@H](Cc2ccc3ccccc3c2)NC(=O)[C@H](CCCNC(=N)N)NC(=O)[C@H]1CCCNC(=O)c1ccc(CNC(=O)CN2CCN(CC(=O)O)CCN(CC(=O)O)CCN(CC(=O)O)CC2)cc1 [gallium-68 labelled],radio-TLC,human serum,"1 h, 37 °C",radiochemical purity,99.01 ± 0.26%
C[C@H](NC(=O)CNC(=O)[C@H](CCC(=O)O)NC(=O)[C@H](CCC(=O)O)NC(=O)[C@H](CC(=O)O)NC(=O)[C@@H]1CCCN1C(=O)[C@H](Cc1ccccc1)NC(=O)[C@H](CS)NC(=O)[C@H](Cc1ccc(O)cc1)NC(=O)CCCNC(=O)CNC(=O)CNC(=O)[C@@H](C)NC(=O)CN)C(=O)N[C@@H](CS)C(=O)N[C@@H](Cc1ccc(O)cc1)C(N)=O [technetium-99m labelled],paper chromatography,sealed vial,"2 h, room temperature",radiochemical purity,93.7 ± 2.49%
COc1ccc2cc([C@H](C)C(=O)NCCCC[C@@H](NC(=O)[C@@H](Cc3ccccc3)NC(=O)[C@H](N)Cc3ccccc3)C(=O)N[C@H](Cc3ccc(O)cc3)C(=O)O)ccc2c1,TEM,hydrogel 0.8 wt%,,nanofiber width,7 ± 2 nm
N=C(N)NCCC[C@@H]1NC(=O)[C@H](CCCCNC(=O)CNC(=O)CNC(=O)CNC(=O)CC[C@H](NC(=O)CNC(=O)CNC(=O)CNC(=O)CC[C@H](NC(=O)CN2CCN(CC(=O)O)CCN(CC(=O)O)CCN(CC(=O)O)CC2)C(=O)NCC(=O)NCC(=O)NCC(=O)N[C@@H](CCC(=O)NCC(=O)NCC(=O)NCC(=O)NCCCC[C@@H]2NC(=O)[C@@H](Cc3ccccc3)NC(=O)[C@H](CC(=O)O)NC(=O)CNC(=O)[C@H](CCCNC(=N)N)NC2=O)C(=O)NCC(=O)NCC(=O)NCC(=O)NCCCC[C@@H]2NC(=O)[C@@H](Cc3ccccc3)NC(=O)[C@H](CC(=O)O)NC(=O)CNC(=O)[C@H](CCCNC(=N)N)NC2=O)C(=O)NCC(=O)NCC(=O)NCC(=O)NCCCC[C@@H]2NC(=O)[C@@H](Cc3ccccc3)NC(=O)[C@H](CC(=O)O)NC(=O)CNC(=O)[C@H](CCCNC(=N)N)NC2=O)NC(=O)[C@@H](Cc2ccccc2)NC(=O)[C@H](CC(=O)O)NC(=O)CNC1=O [indium-111 labelled],,"female athymic nu/nu mice, intestine","intravenous, 24 h",tissue uptake,10.9 ± 1.94 %ID/g
CCCC[C@H](NC(=O)CCCCCCCNC(=O)CN1CCN(CC(=O)O)CCN(CC(=O)O)CC1)C(=O)N[C@H]1CC(=O)NCCCC[C@@H](C(N)=O)NC(=O)[C@H](Cc2c[nH]c3ccccc23)NC(=O)[C@H](CCCNC(=N)N)NC(=O)[C@@H](Cc2ccccc2)NC(=O)[C@H](Cc2c[nH]cn2)NC1=O [copper-64 labelled],,"C57 mice, stomach","intravenous, 0.37 MBq, 2 h",tissue uptake,1.69 ± 0.57 %ID/g
N=C(N)NCCC[C@@H]1NC(=O)[C@H](CCCCNC(=O)CNC(=O)CNC(=O)CNC(=O)CC[C@H](NC(=O)CNC(=O)CNC(=O)CNC(=O)CN2CCN(CC(=O)O)CCN(CC(=O)O)CCN(CC(=O)O)CC2)C(=O)NCC(=O)NCC(=O)NCC(=O)NCCCC[C@@H]2NC(=O)[C@@H](Cc3ccccc3)NC(=O)[C@H](CC(=O)O)NC(=O)CNC(=O)[C@H](CCCNC(=N)N)NC2=O)NC(=O)[C@@H](Cc2ccccc2)NC(=O)[C@H](CC(=O)O)NC(=O)CNC1=O [indium-111 labelled],,"female athymic nu/nu mice, blood","intravenous, 0.5 h",tissue uptake,0.87 ± 0.13 %ID/g
Cc1cc(-c2ccc(NC(=O)[C@H](CCCCNC(=O)CCOCCOCCC(=O)N[C@H](Cc3ccccc3)C(=O)N[C@H]3CSSC[C@@H](C(=O)N[C@H](C(=O)O)[C@@H](C)O)NC(=O)[C@H]([C@@H](C)O)NC(=O)[C@H](CCCCN)NC(=O)[C@@H](Cc4c[nH]c5ccccc45)NC(=O)[C@H](Cc4ccc(O)cc4)NC3=O)NC(=O)CN3CCN(CC(=O)O)CCN(CC(=O)O)CCN(CC(=O)O)CC3)c(C)c2)ccc1N=Nc1ccc2c(S(=O)(=O)O)cc(S(=O)(=O)O)c(N)c2c1O [gallium-68 labelled],radio-HPLC,"saline, glutathione solution, urine",2 h,radiochemical purity,> 99%
N=C(N)NCCC[C@@H]1NC(=O)[C@H](CCCCNC(=O)CC[C@H](NC(=O)COCCOCCOCCNC(=S)Nc2ccc(C[C@H]3CN(CC(=O)O)CCN(CC(=O)O)CCN3CC(=O)O)cc2)C(=O)NCCCC[C@@H]2NC(=O)[C@@H](Cc3ccc(O)cc3)NC(=O)[C@H](CC(=O)O)NC(=O)CNC(=O)[C@H](CCCNC(=N)N)NC2=O)NC(=O)[C@@H](Cc2ccc(O)cc2)NC(=O)[C@H](CC(=O)O)NC(=O)CNC1=O [gallium-68 labelled],HPLC,PBS,"4 h, room temperature",radiochemical purity,> 95%

# Some of these lines once more:
SMILES,assay,system,conditions,measurement,result
CCCC[C@H](NC(=O)CNC(=O)CNC(=O)CN1CCN(CC(=O)O)CCN(CC(=O)O)CCN(CC(=O)O)CC1)C(=O)N[C@H]1CC(=O)NCCCC[C@@H](C(N)=O)NC(=O)[C@H](Cc2c[nH]c3ccccc23)NC(=O)[C@H](CCCNC(=N)N)NC(=O)[C@@H](Cc2ccccc2)NC(=O)[C@H](Cc2c[nH]cn2)NC1=O [lutetium-177 labelled],,"C57 mouse, female, heart","intravenous, 0.037 MBq, 2 h",tissue uptake,0.16 ± 0.07 %ID/g
